Measured values collected from several papers.
Compare with care: the assays were run in different laboratories. Values joined by “and” are separate records of one study, mostly repeats; a detail may differ. ± marks the error that the study gave. In brackets after ≈: the same amount, converted by molar mass.

| SMILES | tested on | assay | test system | conditions | how to read | measurement | result |
| --- | --- | --- | --- | --- | --- | --- | --- |
| O=C(N/N=C/c1ccc(C[n+]2ccccc2)cc1)c1cccc(C(=O)N/N=C/c2ccc(C[n+]3ccccc3)cc2)n1 | hp2 hairpin duplex DNA | FRET melting | – | 1 µM | – | ΔTm | 0.8 ± 0.2 °C |
| CC1(C)[C@H](NC(=O)/C(=N\OCc2cc(=O)c(O)cn2O)c2csc(N)n2)C(=O)N1OS(=O)(=O)O | Proteus vulgaris | agar dilution | ATCC 29905 susceptible | – | – | MIC | ≤ 0.03 µg/mL |
| CC(C)(C)OCc1ccc(-c2ccc3ncnc(Nc4ccc(OCc5cccc(F)c5)c(Cl)c4)c3c2)cc1 | Leishmania major | parasite growth, resazurin | – | promastigote | – | EC50 | > 15 µM |
| O=C(O)CN1C(=O)[C@H](Cc2ccccc2)NC2(C1=O)C1CC3CC(C1)CC2C3 (some centres unmarked) | Trypanosoma brucei | parasite growth | – | pH 7.4, blood stage | – | IC90 | 203 µM |
| O=C(c1cccc(-c2ccc3ncnc(Nc4ccc(OCc5cccc(F)c5)c(Cl)c4)c3c2)c1)N1CCOCC1 | Leishmania major | parasite growth, resazurin | – | promastigote | – | EC50 | 3 µM |
| C=C(NC(=O)c1csc(-c2nc3c(cc2O)-c2nc(cs2)C(=O)NC(C(C)O)C(=O)NC(=C(C)OC)c2nc(cs2)C(=O)NC2c4nc(cs4)C(=O)NC(COC(=O)c4c5c6c(cccc6n4O)COC(=O)C(OC4CC(C)(O)C(N(C)C)C(C)O4)C2OC5)c2nc-3cs2)n1)C(N)=O (centres unmarked) | Streptococcus pneumoniae | broth microdilution | penicillin-resistant isolates | – | – | MIC50 | 0.0078 µg/mL (≈ 0.00543 µM) |
| C[C@@H]1C(=O)O[C@@H](C)/C=C/C=C\[C@@H](C)[C@@H]2C=C[C@@H]3C[C@@]4(C)O[C@H]4[C@@H](C)[C@H]3[C@@H]2C(=O)C(Cl)(Cl)C1=O | Staphylococcus aureus | – | MRSA clinical isolate | resistant OXA/ERY/TET | – | MIC | 0.05 µg/mL (≈ 0.101 µM) |
| Cc1ccc2c(c1)nc(NC(=O)c1cccc(C(F)(F)F)c1)n2[C@H]1CC[C@H](N)CC1 | Trypanosoma brucei brucei | growth inhibition, CellTiter-Glo | Lister 427 bloodstream form | 48 h | – | EC50 | 0.31 µM |
| COC1CN([C@H]2CC[C@H]([C@@]3(C)Oc4c(Cl)cc(C(=O)NCc5c(SC)cc(C)[nH]c5=O)c(C)c4O3)CC2)C1 | – | RNA-seq, measured: DAPK1 | human, whole blood | dose not given, 24 h | relative to: pretreatment baseline | log2 fold change | 1.5 |
| C#CCNC(=O)C1(O/N=C(\C(=O)N[C@@H]2C(=O)N(OS(=O)(=O)O)C2(C)C)c2csc(N)n2)CC1 | Shigella flexneri | agar dilution | ATCC 12022 susceptible | – | – | MIC | 0.5 µg/mL (≈ 0.999 µM) |
| COc1ccc2c(C)nc(Nc3nc(O)cc(-c4ccccc4)n3)nc2c1 | Mus musculus | gene silencing, high-content imaging | LDR reporter GFP cells | 30 h, retest run 2 | – | Emax | 100% |
| [2H]C([2H])(N)C([2H])([2H])NC(=O)c1cc(C2CC2)nc2c1cnn2C(C)C | Enterovirus D68 | viral replication | RD, US/MO/14-18947 | 30 nM | – | plaque reduction | 0% and 2.14% |
| CN(Cc1ccc(C2(C(F)(F)F)CCC2)cc1)Cc1cccc2ccccc12 | Trichophyton rubrum | microbial growth, disc diffusion | ATCC28188 | 0.016 µg/mL, 6 days | – | inhibition zone | 28 mm |
| c1ccc(Nc2ncnc3ccc(-c4cccc(N5CCOCC5)c4)cc23)cc1 | Leishmania major | parasite growth, resazurin | – | promastigote | – | EC50 | 9.4 µM |
| CN(C)CCNC(=O)c1cccn2c(=O)c3cc4ccccc4cc3nc12 | Trypanosoma brucei | RNA-seq | Lister 427 bloodstream form | 2 × EC50, 4 h, ChIP-seq G4 peak overlap | – | upregulated G4-containing genes | 2 genes |
| Nc1c(C(=O)c2ccc(Br)cc2)sc(S)c1-c1nc2ccccc2s1 | human adenovirus type 7 | plaque reduction | – | non-toxic concentration | – | viral titre reduction | 20% |
| Cc1cccc2c1N(C(=O)n1ccnn1)CC2 | Arabidopsis thaliana | – | kai2 mutant | 100 µM, 72 h | – | germination rate | 49.6% |
| COc1cc(Nc2ncnc3ccc(-c4ccc(S(=O)(=O)N5CCOCC5)cc4)cc23)ccc1OCc1cccc(F)c1 | Leishmania major | parasite growth, resazurin | – | promastigote | – | EC50 | 1.6 µM |
| CCCC(=O)N1CCN(c2ccc(NC(=O)c3ccc([N+](=O)[O-])o3)cc2Cl)CC1 | Mus musculus | gene silencing, high-content imaging | LDR reporter GFP cells | retest run 2 | – | AC50 | 3.16 µM |
| CCCC(C)Oc1cccc(NC(=O)c2cccnc2)c1 (centres unmarked) | Nakaseomyces glabratus | microbial growth, broth dilution | MY1381 | – | – | MIC50 | 16 µg/mL (≈ 56.3 µM) |
| O=C(N/N=C/c1ccccn1)c1cc(-c2ccc(Cl)cc2)nc2ccccc12 | Mus musculus | gene silencing, high-content imaging | LDR reporter GFP cells | 30 h, confirmation, mean of two runs | – | Emax | 61% |

| SMILES | tested on | assay | test system | conditions | how to read | measurement | result |
| --- | --- | --- | --- | --- | --- | --- | --- |
| CC(C)n1ncc2c(C(=O)NCC3CNC3)cc(C3CC3)nc21 | Enterovirus D68 | viral replication | RD, US/MO/14-18947 | 100 nM | – | plaque reduction | 0% |
| COCC/N=C(\S)N/N=C(\C)c1ccccc1O | Mus musculus | gene silencing, high-content imaging | LDR reporter GFP cells | 30 h, retest, mean of two runs | – | Emax | 54% |
| CC1(C)[C@H](NC(=O)/C(=N\OCc2c(Cl)cccc2Cl)c2nsc(N)n2)C(=O)N1OS(=O)(=O)O | Proteus vulgaris | agar dilution | ATCC 29905, susceptible | – | – | MIC | 2 µg/mL (≈ 3.71 µM) |
| C(=N\Nc1nc(-c2ccccn2)nc2ccccc12)/c1ccccc1 | Mus musculus | gene silencing, high-content imaging | LDR reporter GFP cells | 30 h, retest run 2 | – | Emax | 117% |
| Fc1cccc(COc2ccc(Nc3ncnc4ccc(-c5ccc(N6CCOCC6)cc5)cc34)cc2Cl)c1 | Leishmania major | parasite growth, resazurin | – | promastigote | – | EC50 | 4.4 µM |
| COc1ccc(NC(=O)CSc2nc3c(oc4ccccc43)c(=O)n2Cc2ccco2)cc1Cl | Mus musculus | gene silencing, high-content imaging | LDR reporter GFP cells | retest run 1 | – | AC50 | 10 µM |
| CN(C(=O)c1ccn2ncc(-c3ccc(C(N)=O)cc3)c2c1)c1ccc(C#N)cn1 | Cryptosporidium parvum | – | neonatal calf | treatment period, scale 1 to 3 | direction not given | median fecal consistency score | 2 |
| O=C(N/N=C/c1ccc(C[n+]2ccccc2)cc1)C(=O)N/N=C/c1ccc(C[n+]2ccccc2)cc1 | hp2 hairpin duplex DNA | FRET melting | – | 1 µM | – | ΔTm | 0.4 ± 0.1 °C |
| O=C(CSc1cccc[n+]1[O-])c1ccccc1Br | Mus musculus | gene silencing, high-content imaging | LDR reporter GFP cells | 30 h, confirmation, mean of two runs | – | Emax | 127% |
| CC(=O)OC[C@H]1O[C@@H](Sc2sc(C(=O)c3ccc(Cl)cc3)c(N)c2-c2nc3ccccc3s2)[C@H](OC(C)=O)[C@@H](OC(C)=O)[C@@H]1OC(C)=O | human adenovirus type 7 | plaque reduction | – | non-toxic concentration | – | viral titre reduction | 10% |
| O=S(=O)(c1ccc(-c2ccc3ncnc(Nc4ccc(OCc5cccc(F)c5)cc4)c3c2)cc1)N1CCOCC1 | Leishmania major | parasite growth, resazurin | – | promastigote | – | EC50 | 0.48 µM |
| O=C(Oc1cc(OC(=O)c2cc(O)c(O)c(O)c2)c2ccccc2c1)c1cc(O)c(O)c(O)c1 | Human alphaherpesvirus 2 | viral replication, inhibitor, qPCR | HeLa | – | – | IC50 | 1.57 µM |
| O=S(=O)(c1ccc(-c2ccc3ncnc(Nc4ccc(OCc5ccc(F)cc5)c(Cl)c4)c3c2)cc1)N1CCOCC1 | Leishmania major | parasite growth, resazurin | – | promastigote | – | EC50 | 1.7 µM |
| CC1(C)[C@H](NC(=O)/C(=N\OC2(C(=O)O)CCCCC2)c2csc(N)n2)C(=O)N1OS(=O)(=O)O | Proteus vulgaris | agar dilution | ATCC 29905, susceptible | – | – | MIC | 0.25 µg/mL (≈ 0.495 µM) |
| Cc1c(CN(C)C(=O)/C=C/c2cnc3c(c2)CC(N)C(=O)N3)oc2ccccc12 (centres unmarked) | Escherichia coli | broth microdilution | AR-0559 | – | – | MIC | 8 µg/mL (≈ 20.5 µM) |
| CC1(C)[C@H](NC(=O)/C(=N\OC2(C(=O)O)CC2)c2nsc(N)n2)C(=O)N1OS(=O)(=O)O | Shigella flexneri | agar dilution | ATCC 12022, susceptible | – | – | MIC | 1 µg/mL (≈ 2.15 µM) |
| O=S(=O)(c1ccc(-c2ccc3ncnc(Nc4ccc(OCc5cccc(F)c5)c(Cl)c4)c3c2)cc1)N1CCSCC1 | Leishmania major | parasite growth, resazurin | – | promastigote | – | EC50 | > 15 µM |
| CC(C)(C)NCC(SS(=O)(=O)O)c1ccccc1 (centres unmarked) | Schistosoma mansoni | – | infected mice | 200 mg/kg single, day 42, perfusion day 56 | relative to: vehicle | male worm burden reduction | 57% |
| CC(C)n1ncc2c(C(=O)NCC(C)(C)N)cc(C3CC3)nc21 | Enterovirus D68 | viral replication | RD, US/MO/14-18947 | 100 nM | – | plaque reduction | 12% and 16% |
| COc1cccc(/C=N/Nc2nc(Nc3ccccc3)nc(-n3nc(C)cc3C)n2)c1O | Mus musculus | gene silencing, high-content imaging | LDR reporter GFP cells | 30 h, confirmation, mean of two runs | – | Emax | 104% |
